Assay results from different studies.
Compare with care: the assays were run in different laboratories.

Compound	tested on	test	setting	how to read	measurement	result
Cn1cncc1C1=CN(c2ncnc3[nH]cnc23)CCS1	NCI-H226		lung cancer		GI50	14.8 µM
Cc1cc2c(cc1C)[n+](Cc1ccc3ccccc3c1)cn2Cc1ccc2ccccc2c1.[Br-]	NCI-H226	NCI60 five-dose screen			TGI	3.42 µM
O=C(Nc1nnc2[nH]c(=S)[nH]c(-c3ccc(Cl)cc3)c1-2)c1ccccc1	NCI-H226	SRB	10 µM, NCI60 single-dose screen	baseline: untreated	cell growth	85.2%
CCCN1CCN(c2ccc3[nH]c(-c4ccc5[nH]c(-c6cc(OC)c(OC)c(OC)c6)nc5c4)nc3c2)CC1	NCI-H226	cell growth, NCI-60 SRB	10 µM		growth percent	81.7%
CCN(CC)c1ccc(C=NNC(=O)CSc2nc3ccccc3c(=O)n2Cc2ccc(S(N)(=O)=O)cc2)c(O)c1	NCI-H226	NCI five-dose screen			TGI	> 100 µM
CCCc1n(Cc2ccc3ccccc3c2)c2ccccc2[n+]1Cc1ccc2ccccc2c1.[Br-]	NCI-H226	NCI60 five-dose screen			TGI	1.8 µM
CCOc1ccc(-c2nc3cc(-c4nc5cc(N6CCN(C)CC6)ccc5[nH]4)ccc3[nH]2)cc1OCC	NCI-H226	cell growth, NCI-60 SRB	10 µM		growth percent	-8.92%
CCCCCCCCCCCCCCCCCCOc1ccc(CC(=O)OCC[N+]2(C)CCCCC2)cc1	NCI-H226	SRB	10 µM		growth inhibition	< 0%
CCOC(=O)CSc1nc(-c2ccc(Cl)cc2)c2c(NC(=O)c3ccccc3)nnc-2[nH]1	NCI-H226	SRB	10 µM, NCI60 single-dose screen	baseline: untreated	cell growth	91%
C#C[C@@]1(O)[C@@H](CO)O[C@@H](n2cc(F)c3c(N)ncnc32)[C@@H]1O	NCI-H226	SRB	NCI-60 screen		TGI	2.63 µM
Cc1cc(C)n(C(=S)[S][Au][PH](CCCCCC[PH]([Au][S]C(=S)n2nc(C)cc2C)(c2ccccc2)c2ccccc2)(c2ccccc2)c2ccccc2)n1	NCI-H226	cell growth, NCI-60 screen	non-small cell lung cancer		log10 TGI	> -4
CC(C)C(=O)C(=O)O		binding, equilibrium dialysis LC-MS	5 µM, thermostabilized A2AR-BRIL construct	baseline: no-protein control, direction not given	z-scored log2 fold change	-1.73
COc1ccc(OC)c(-c2nc3ccc(-c4nc5ccc(N6CCN(C)CC6)cc5[nH]4)cc3[nH]2)c1	NCI-H226	cell growth, NCI-60 SRB	10 µM		growth percent	103%
NNc1nc(-c2ccc(Cl)cc2)c2c(NC(=O)c3ccccc3)nnc-2[nH]1	NCI-H226	SRB	10 µM, NCI60 single-dose screen	baseline: untreated	cell growth	109%
COc1cc(CC(=O)O)ccc1O		binding, equilibrium dialysis LC-MS	5 µM, thermostabilized A2AR-BRIL construct	baseline: no-protein control, direction not given	z-scored log2 fold change	-0.502
O=C(Nc1nnc2n3c(nc(-c4ccc(Cl)cc4)c1-2)SCC3=O)c1ccccc1	NCI-H226	SRB	10 µM, NCI60 single-dose screen	baseline: untreated	cell growth	79.1%
O=C(/C=C/C=C/C=C/C1CCCCC1)NC1=C[C@@](O)(/C=C/C=C/C=C/C(=O)NC2=C(O)CCC2=O)[C@@H]2O[C@@H]2C1=O	NCI-H226	cell growth, CellTiter-Glo	78 h		GI50	18.5 µM

Repeated from above:
Compound	tested on	test	setting	how to read	measurement	result
C#C[C@@]1(O)[C@@H](CO)O[C@@H](n2cc(F)c3c(N)ncnc32)[C@@H]1O	NCI-H226	SRB	NCI-60 screen		TGI	2.63 µM
Cc1cc(C)n(C(=S)[S][Au][PH](CCCCCC[PH]([Au][S]C(=S)n2nc(C)cc2C)(c2ccccc2)c2ccccc2)(c2ccccc2)c2ccccc2)n1	NCI-H226	cell growth, NCI-60 screen	non-small cell lung cancer		log10 TGI	> -4
